{"data": "Experimental data gathered from unrelated publications", "note": "Compare with care: the assays were run in different laboratories."}
{"SMILES": "C=CCO/N=C(\\C(=O)N[C@@H]1C(=O)N(OS(=O)(=O)O)C1(C)C)c1csc(N)n1", "organism": "Enterobacter cloacae", "test": "agar dilution", "system": "CDC 1000654", "MIC": "8 µg/mL"}
{"SMILES": "CC[C@H](C)[C@@H]1NC(=O)[C@@H]([C@@H](C)O)NC(=O)CNC(=O)[C@H](CC(=O)O)NC(=O)CNC(=O)[C@H](CC(=O)O)NC(=O)CNC(=O)[C@H]2CCCCN2C(=O)[C@@H](NC(=O)[C@H](CC(=O)O)NC(=O)/C=C/CCCCCCCCCC(C)C)CNC(=O)[C@@H]2CCCN2C1=O", "organism": "Enterococcus", "test": "broth microdilution", "system": "VRE 155, Mueller-Hinton broth, Mg2+ 10 mg/L", "conditions": "16 h, with: Ca2+ 2.5 mM", "MIC": "4 µg/mL"}
{"SMILES": "COc1cc(C(=O)O)ccc1NC(=O)c1ccc(NC(=O)c2ccc(NC(=O)[C@H](Cc3c[nH]nn3)NC(=O)c3ccc(NC(=O)/C(C)=C/c4ccc(O)cc4)cc3)cc2)c(OC)c1O", "organism": "Enterococcus faecium", "test": "broth microdilution", "system": "ciprofloxacin-sensitive", "MIC": "4 µg/mL"}
{"SMILES": "CC1(C)C(NC(=O)C(=NOC2(C(=O)O)CC2)c2csc(N)n2)C(=O)N1OS(=O)(=O)O (centres unmarked)", "organism": "Klebsiella pneumoniae", "test": "agar dilution", "system": "16-14, ESBL-producing", "MIC": "0.06 µg/mL"}
{"SMILES": "C/C(=C\\c1ccc(O)cc1)C(=O)Nc1ccc(C(=O)N[C@@H](Cc2c[nH]nn2)C(=O)Nc2ccc(C(=O)Nc3ccc(C(=O)Nc4ccc(C(=O)O)c(O)c4)c(O)c3)cc2)cc1", "organism": "Enterococcus faecium", "test": "broth microdilution", "system": "ciprofloxacin-sensitive", "MIC": "16 µg/mL"}
{"SMILES": "Cc1c(CN(C)C(=O)/C=C/c2cnc3c(c2)CC(N)C(=O)N3)oc2ccccc12 (centres unmarked)", "organism": "Enterobacter cloacae", "test": "microbial growth, broth dilution", "system": "BAA2341", "MIC": "8 µg/mL"}
{"SMILES": "COCO[C@H]1[C@H](O)[C@@H](N)[C@@H](O[C@H]2[C@H](O[C@@H]3O[C@H](CO)[C@@H](O[C@H]4O[C@@H](CN)[C@@H](O)[C@H](O)[C@H]4N)[C@H]3O)[C@@H](O)[C@H](N)C[C@@H]2N)O[C@@H]1CO", "organism": "Mycolicibacterium smegmatis", "test": "microbial growth, broth dilution", "conditions": "72 h", "MIC": "16 µg/mL"}
{"SMILES": "COc1nc(C(=O)Nc2ccc(C(=O)O)nc2OC)ccc1NC(=O)c1ccc(NC(=O)[C@H](Cc2c[nH]nn2)NC(=O)c2ccc(NC(=O)/C(C)=C/c3ccc(O)cc3)cc2)cc1", "organism": "Enterococcus faecium", "test": "broth microdilution", "system": "ciprofloxacin-resistant", "MIC": "64 µg/mL"}
{"SMILES": "NC[C@@H]1O[C@H](O[C@H]2[C@@H](O)[C@H](O[C@@H]3[C@@H](O)[C@H](N)C[C@H](N)[C@H]3O[C@H]3O[C@H](CO)[C@@H](OCC(O)CO)[C@H](O)[C@H]3N)O[C@@H]2CO)[C@H](N)[C@@H](O)[C@@H]1O (some centres unmarked)", "organism": "Mycolicibacterium smegmatis", "test": "microbial growth, broth dilution", "conditions": "72 h", "MIC": "2 µg/mL"}
{"SMILES": "CCCCCCCCCCCCCCCCCCn1cc(CN(CCC(=O)NCCN(CCC(=O)NCCN(CCC(=O)NCCN(C)C)CCC(=O)NCCN(C)C)CCC(=O)NCCN(CCC(=O)NCCN(C)C)CCC(=O)NCCN(C)C)CCC(=O)NCCN(CCC(=O)NCCN(CCC(=O)NCCN(C)C)CCC(=O)NCCN(C)C)CCC(=O)NCCN(CCC(=O)NCCN(C)C)CCC(=O)NCCN(C)C)nn1", "organism": "Enterobacter cloacae", "test": "broth microdilution", "system": "119, LB broth", "conditions": "18 h", "MIC": "> 96 µg/mL"}
{"SMILES": "CCCCCCC#Cc1cncc(-c2nnc(SCc3ccc(Cl)cc3)n2C)c1", "organism": "Enterobacter cloacae", "test": "microbial growth, broth dilution", "system": "DSM30054", "MIC": "> 64 µg/mL"}
{"SMILES": "CN[C@H](CC(C)C)C(=O)N[C@H]1C(=O)N[C@@H](CC(N)=O)C(=O)N[C@H]2C(=O)N[C@H]3C(=O)N[C@H](C(=O)N[C@H](C(=O)O)c4cc(O)cc(O)c4-c4cc3ccc4O)[C@H](O)c3ccc(c(Cl)c3)Oc3cc2cc(c3O[C@@H]2O[C@H](CO)[C@@H](O)[C@H](O)[C@H]2O[C@H]2C[C@](C)(N)[C@H](O)[C@H](C)O2)Oc2ccc(cc2Cl)[C@H]1O", "organism": "Staphylococcus epidermidis", "test": "microbial growth, broth dilution", "system": "12228", "MIC": "< 1 µM"}
{"SMILES": "CN[C@H](CC(C)C)C(=O)N[C@H]1C(=O)N[C@@H](CC(N)=O)C(=O)N[C@H]2C(=O)N[C@H]3C(=O)N[C@H](C(=O)N[C@H](C(=O)O)c4cc(O)cc(O)c4-c4cc3ccc4O)[C@H](O)c3ccc(c(Cl)c3)Oc3cc2cc(c3O[C@@H]2O[C@H](CO)[C@@H](O)[C@H](O)[C@H]2O[C@H]2C[C@](C)(NCc3ccc(-c4ccc(Cl)cc4)cc3)[C@H](O)[C@H](C)O2)Oc2ccc(cc2Cl)[C@H]1O", "organism": "Enterococcus faecium", "system": "VanA VRE ATCC BAA-2317", "conditions": "with: LTA 100 µg/mL and Mg2+ 100 µg/mL", "MIC": "5 µg/mL"}
{"SMILES": "COc1c(NC(=O)c2ccc(NC(=O)c3ccc(NC(=O)[C@H](CC#N)NC(=O)c4ccc(NC(=O)/C(C)=C/c5ccc(O)cc5)cc4)cc3)c(OC)c2O)ccc(C(=O)O)c1O", "organism": "Enterococcus faecium", "test": "broth microdilution", "system": "ciprofloxacin-resistant", "MIC": "16 µg/mL"}
{"SMILES": "CC1(C)C(NC(=O)C(=NOC2(C(=O)O)CCC2)c2csc(N)n2)C(=O)N1OS(=O)(=O)O (centres unmarked)", "organism": "Enterobacter cloacae", "test": "agar dilution", "system": "CDC 1000654", "MIC": "2 µg/mL"}
{"SMILES": "COC1C=COC2(C)Oc3c(C)c(O)c4c(c3C2=O)C2=NC3(CCN(CC(C)C)CC3)NC2=C(NC(=O)C(C)=CC=CC(C)C(O)C(C)C(O)C(C)C(OC(=O)c2cncnc2)C1C)C4=O (centres unmarked)", "organism": "Mycobacteroides abscessus", "system": "ATCC 19977", "conditions": "single-strain MIC", "MIC": "43.7 µg/mL"}
{"SMILES": "CC(=O)NC[C@H]1CN(c2ccc(N3CCN(C(=O)CN)CC3)c(F)c2)C(=O)O1", "organism": "Enterobacter cloacae", "system": "clinical isolate", "MIC": "> 128 µM"}
{"SMILES": "C=CCO[C@H]1[C@H](O)[C@@H](N)[C@@H](O[C@H]2[C@H](O[C@@H]3O[C@H](CO)[C@@H](O[C@H]4O[C@@H](CN)[C@@H](O)[C@H](O)[C@H]4N)[C@H]3O)[C@@H](O)[C@H](N)C[C@@H]2N)O[C@@H]1CO", "organism": "Mycolicibacterium smegmatis", "test": "microbial growth, broth dilution", "conditions": "72 h", "MIC": "16 µg/mL"}
{"SMILES": "CC1(C)[C@H](NC(=O)/C(=N\\OCc2c(Cl)cccc2Cl)c2csc(N)n2)C(=O)N1OS(=O)(=O)O", "organism": "Enterobacter cloacae", "test": "agar dilution", "system": "ATCC 43560, susceptible", "MIC": "1 µg/mL"}
{"SMILES": "CO[C@H]1/C=C/O[C@@]2(C)Oc3c(C)c(O)c4c(c3C2=O)C2=NC3(CCN(CC(C)C)CC3)NC2=C(NC(=O)/C(C)=C\\C=C\\[C@H](C)[C@H](O)[C@@H](C)[C@@H](O)[C@@H](C)[C@H](OC(=O)c2cccc(F)c2)[C@@H]1C)C4=O", "organism": "Mycobacteroides abscessus", "system": "Bamboo clinical isolate", "conditions": "90% growth inhibition", "MIC": "0.068 µM"}
{"SMILES": "C=C(NC(=O)c1csc(-c2nc3c(cc2O)-c2nc(cs2)C(=O)NC(C(C)O)C(=O)NC(=C(C)OC)c2nc(cs2)C(=O)NC2c4nc(cs4)C(=O)NC(COC(=O)c4c5c6c(cccc6n4O)COC(=O)C(OC4CC(C)(O)C(N(C)C)C(C)O4)C2OC5)c2nc-3cs2)n1)C(N)=O (centres unmarked)", "organism": "Staphylococcus aureus", "system": "ATCC 43300 MRSA", "MIC": "0.0156 µg/mL"}
{"SMILES": "COc1c(NC(=O)c2ccc(NC(=O)c3ccc(NC(=O)[C@H](Cc4c[nH]nn4)NC(=O)c4ccc(NC(=O)/C(C)=C/c5ccc(O)cc5)cc4)cc3)c(OC)c2O)ccc(C(=O)O)c1O", "organism": "Enterococcus faecium", "test": "broth microdilution", "system": "ciprofloxacin-resistant", "MIC": "64 µg/mL"}
{"SMILES": "NC[C@@H]1O[C@H](O[C@H]2[C@@H](O)[C@H](O[C@@H]3[C@@H](O)[C@H](N)C[C@H](N)[C@H]3O[C@H]3O[C@H](CO)[C@@H](OCCCO)[C@H](O)[C@H]3N)O[C@@H]2CO)[C@H](N)[C@@H](O)[C@@H]1O", "organism": "Mycolicibacterium smegmatis", "test": "microbial growth, broth dilution", "conditions": "72 h", "MIC": "64 µg/mL"}
{"SMILES": "CNC(C)C1CCC(N)C(OC2C(N)CC(N)C(OC3OCC(C)(O)C(NC)C3O)C2O)O1 (centres unmarked)", "organism": "Staphylococcus epidermidis", "test": "microbial growth, broth dilution", "system": "12228", "MIC": "1 µM"}
{"SMILES": "CC1(C)[C@H](NC(=O)/C(=N\\OCC(=O)N2CCC(C(=O)O)C2)c2nsc(N)n2)C(=O)N1OS(=O)(=O)O (some centres unmarked)", "organism": "Enterobacter cloacae", "test": "agar dilution", "system": "ATCC 43560, susceptible", "MIC": "2 µg/mL"}
{"SMILES": "CC1C=CC=CC(C)C2C=CC3CC(C)(O)C(Cl)C(C)C3C2C(=O)C(Cl)(Cl)C(=O)C(C)C(=O)O1 (centres unmarked)", "organism": "Staphylococcus aureus", "system": "MRSA clinical isolate", "conditions": "OXA CLI ERY resistant", "MIC": "0.05 µg/mL"}
{"SMILES": "COc1cc(C(=O)Nc2ccc(C(=O)O)c(O)c2OC)ccc1NC(=O)c1ccc(NC(=O)[C@H](Cc2c[nH]nn2)NC(=O)c2ccc(NC(=O)/C(C)=C/c3ccc(O)cc3)cc2)cc1", "organism": "Enterococcus faecium", "test": "broth microdilution", "system": "ciprofloxacin-resistant", "MIC": "8 µg/mL"}
{"SMILES": "CC(C)(O/N=C(\\C(=O)N[C@@H]1C(=O)N(OS(=O)(=O)O)C1(C)C)c1nsc(N)n1)C(=O)O", "organism": "Enterobacter cloacae", "test": "agar dilution", "system": "ATCC 43560, susceptible", "MIC": "32 µg/mL"}
{"SMILES": "COc1nc(C(=O)Nc2ccc(C(=O)O)c(O)c2OC)ccc1NC(=O)c1ccc(NC(=O)[C@H](Cc2c[nH]nn2)NC(=O)c2ccc(NC(=O)/C(C)=C/c3ccc(O)cc3)cc2)cc1", "organism": "Enterococcus faecium", "test": "broth microdilution", "system": "ciprofloxacin-resistant", "MIC": "8 µg/mL"}
{"SMILES": "CC1(C)[C@H](NC(=O)/C(=N\\OCC(=O)N2CCC[C@@H]2C(=O)O)c2nsc(N)n2)C(=O)N1OS(=O)(=O)O", "organism": "Enterobacter cloacae", "test": "agar dilution", "system": "CDC 1000654", "MIC": "> 64 µg/mL"}
{"SMILES": "COc1c(NC(=O)c2ccc(NC(=O)[C@H](Cc3c[nH]nn3)NC(=O)c3ccc(NC(=O)/C(C)=C/c4ccc(O)cc4)cc3)cc2)ccc(C(=O)Nc2ccc(C(=O)O)cc2)c1O", "organism": "Enterococcus faecium", "test": "broth microdilution", "system": "ciprofloxacin-sensitive", "MIC": "4 µg/mL"}
{"SMILES": "CC1(C)[C@H](NC(=O)/C(=N\\OC2(C(=O)O)CC2)c2nsc(N)n2)C(=O)N1OS(=O)(=O)O", "organism": "Enterobacter cloacae", "test": "agar dilution", "system": "ATCC 43560, susceptible", "MIC": "0.5 µg/mL"}
{"note": "Excerpt of the above:"}
{"SMILES": "CC1(C)[C@H](NC(=O)/C(=N\\OC2(C(=O)O)CC2)c2nsc(N)n2)C(=O)N1OS(=O)(=O)O", "organism": "Enterobacter cloacae", "test": "agar dilution", "system": "ATCC 43560, susceptible", "MIC": "0.5 µg/mL"}
{"SMILES": "CC1(C)[C@H](NC(=O)/C(=N\\OCc2c(Cl)cccc2Cl)c2csc(N)n2)C(=O)N1OS(=O)(=O)O", "organism": "Enterobacter cloacae", "test": "agar dilution", "system": "ATCC 43560, susceptible", "MIC": "1 µg/mL"}
{"SMILES": "COC1C=COC2(C)Oc3c(C)c(O)c4c(c3C2=O)C2=NC3(CCN(CC(C)C)CC3)NC2=C(NC(=O)C(C)=CC=CC(C)C(O)C(C)C(O)C(C)C(OC(=O)c2cncnc2)C1C)C4=O (centres unmarked)", "organism": "Mycobacteroides abscessus", "system": "ATCC 19977", "conditions": "single-strain MIC", "MIC": "43.7 µg/mL"}
{"SMILES": "COc1c(NC(=O)c2ccc(NC(=O)c3ccc(NC(=O)[C@H](Cc4c[nH]nn4)NC(=O)c4ccc(NC(=O)/C(C)=C/c5ccc(O)cc5)cc4)cc3)c(OC)c2O)ccc(C(=O)O)c1O", "organism": "Enterococcus faecium", "test": "broth microdilution", "system": "ciprofloxacin-resistant", "MIC": "64 µg/mL"}
